# Published values pooled from the literature.
# Several values in a cell are separate wells, animals, samples, runs or records.
Structure (SMILES),assay,system,conditions,scale,endpoint,result
O=C(NS(=O)(=O)c1cccs1)c1cc2ccccc2n1Cc1ccc(Br)c2ccccc12,,"Sprague-Dawley rat, male, plasma","oral, 20 mL/kg, 0.5 h",,plasma concentration,4210 ng/mL
CC[C@H](C)[C@H](NC(=O)[C@H](Cc1ccc(O)cc1)NC(=O)[C@@H](NC(=O)[C@H](CCCNC(=N)N)NC(=O)[C@@H](N)CC(=O)O)C(C)C)C(=O)N[C@@H](Cc1c[nH]cn1)C(=O)N1CCC[C@H]1C(=O)O,LC-MS/MS,"Sprague-Dawley rat, both sexes, plasma","subcutaneous, 10 mg/kg/day, day 27, 1.5 h, 90 min",,plasma concentration,5.18 ng/mL
Cc1cc(C(=O)NC(C)(C)C(=O)O)cc(C)n1,LC-MS metabolite profiling,"Sprague-Dawley rat, both sexes, plasma","oral, 100 mg/kg of parent drug, 0.5 (unit not given)",higher = more metabolite,plasma peak area,59200 a.u.
CNC(=O)C1CCCN(C(=O)C2CC3CCC2N3C(=O)[C@@H]2C[C@@H](O)CN2C(=O)NCc2cccc(Cl)c2F)C1 (mixture of isomers),,"Sprague-Dawley rat, plasma","intravenous, 2.5 mg/kg, 15 min",,plasma concentration,576 ng/mL
CNc1cc(N)c(C(N)=O)c[n+]1C,"substrate, refers to: methylated product","rats, plasma","oral, 30 mg/kg, 8.00 h",,plasma concentration of product,0.191 µM and 0.189 µM
CCCN(C)c1cc(C(F)(F)F)nc(SCCC(=O)NCc2ccco2)n1,,"Wistar rat, plasma","intraperitoneal, 25 mg/kg, 2 h post-dose",baseline: vehicle control,plasma creatine kinase,no effect
CC(C)(C)C(=O)Nc1ccc2[nH]c(CN3CCC(N(CCCN4CCOCC4)CC4OC(n5cnc6c(N)ncnc65)C(O)C4O)CC3)nc2c1 (stereo not drawn),,Sprague-Dawley rats,"intraperitoneal, 20 mg/kg, 6 h, LLOQ 10 ng/mL",,plasma concentration,not detected
COc1ccc(C(N)=O)cn1,,"Han Wistar rats, male, plasma","oral, 30 mg/kg, 1.00 h",,plasma concentration,80.4 µM
Cc1noc(C)c1Cn1cc(N2C(=O)CN(Cc3cccc(O[C@@H]4O[C@H](C(=O)O)[C@@H](O)[C@H](O)[C@H]4O)c3)C2=O)cn1,,"Sprague-Dawley rat, male","oral, 100 mg/kg of parent drug, 2 h",,plasma concentration,7870 ng/mL
Cc1cc(C(=O)NC(C)(C)CO)cc(C)n1,LC-MS metabolite profiling,"Sprague-Dawley rat, both sexes, plasma","oral, 100 mg/kg of parent drug, 2 (unit not given)",higher = more metabolite,plasma peak area,163000 a.u.
CNc1cc(N)c(C(N)=O)cn1,,"Han Wistar rats, male, plasma","oral, 30 mg/kg, 4.00 h",,plasma concentration,6.01 µM
Cc1noc(C)c1Cn1cc(N2C(=O)CN(Cc3cccc(OS(=O)(=O)O)c3)C2=O)cn1,,"rat Sprague-Dawley male, plasma","intravenous, 1 mg/kg of parent drug, 2 h",,plasma concentration,439 ng/mL

# Excerpt of the above:
Structure (SMILES),assay,system,conditions,scale,endpoint,result
CCCN(C)c1cc(C(F)(F)F)nc(SCCC(=O)NCc2ccco2)n1,,"Wistar rat, plasma","intraperitoneal, 25 mg/kg, 2 h post-dose",baseline: vehicle control,plasma creatine kinase,no effect
